Experimental data of several laboratories.
Each numbered part is a random draw from the data of one study; scales do not carry over between parts.

Set 1
Target: Ras GTPase-activating protein-binding protein 1, full length (G3BP1, Homo sapiens, UniProt Q13283)
Sequence of UniProt Q13283 (whole entry, looked up): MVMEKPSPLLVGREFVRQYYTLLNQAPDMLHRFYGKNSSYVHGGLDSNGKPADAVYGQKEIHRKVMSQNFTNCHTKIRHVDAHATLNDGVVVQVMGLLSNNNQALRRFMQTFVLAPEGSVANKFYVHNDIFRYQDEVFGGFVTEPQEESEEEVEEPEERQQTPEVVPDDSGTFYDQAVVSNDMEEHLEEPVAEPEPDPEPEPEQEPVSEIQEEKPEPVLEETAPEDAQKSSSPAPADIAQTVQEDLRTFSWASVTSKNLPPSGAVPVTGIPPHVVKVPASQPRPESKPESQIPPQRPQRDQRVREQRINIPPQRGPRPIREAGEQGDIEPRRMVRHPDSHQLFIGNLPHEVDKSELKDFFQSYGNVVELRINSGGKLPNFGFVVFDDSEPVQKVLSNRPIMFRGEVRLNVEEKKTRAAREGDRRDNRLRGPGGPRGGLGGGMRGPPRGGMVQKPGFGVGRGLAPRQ
Method: RNA Bind-n-Seq
Form: RNA
Sample: in vitro
Tested at: 200 nM
Notes: whole 134-nt RNA, ends assumed
Together with: 150 mM KCl
Baseline: input library
Direction: higher = stronger binding
Constant ends, left off below: GGGAGUUCUACAGUCCGACGAUC … UGGAAUUCUCGGGUGUCAAGG
Sequence	log2 enrichment
CUCAAGUCCUGUGCUACACAUCGUAUGUACCGAAUCGGGGAGGAGGGGAGGGGAAAGUAUUAUGUUACGCCGUUCGGAUCUGCACUUCCA	0.996
ACCAUGCAGGUGGGCAUCUUUGGGAAGUGGGGCAAGGGGGGGAUAGGGAGGGAAAUAACACUUUGGGAACAGGUGGUCCCAGGUCGUUUC	0.95
UUGUGAGAGCCACAGGAAAAGCAAGAAGGAGAAGAAGAAAAAGAAAAAGAGGAAACACAAGAAAGAGAAGAAGAAGAAAGACAAAGAGCA	0.191
CAAGUCCUGUGCUACACAUCGUAUGUACCGAAUCGGGGCCGGGGCCGGGGCCGGGGAAAGUAUUAUGUUACGCCGUUCGGAUCUGCACUU	-0.8
CACAGACAACACGCACCCACACAGAUACAGAGGGAAGGGGUUGGGAUGGGGACAGGGUGCACAGCAGGGCGGGGUAGGACCCCAGCCCCU	1.92
UAACUUUAGAGGAGGAUCUGAUGGAUAUGGCAGUGGACGUGGAUUUGGGGAUUGCUAUAAUGGGUAUGGAGGAGGACCUGGAGGUGGCAA	0.381
AGUCCUGUGCUACACAUCGUAUGUACCGAAUCGGGAAAAAGGGAGGGAAAAAAAGGGAAAGUAUUAUGUUACGCCGUUCGGAUCUGCACU	-0.114
CACGGACAACACGCACCCACACAGACACAGAGGGAAGGGGUUGGGAUGGGGACAGGGUGCACAGCAGGGCGGGGUAGGACCCCAGCCCCU	1.93
AUUUGUACACAGACAGGGAAACUGGCAAGCUGAAGGGAGAGGCAACGGUCUCUUUUGAUGACCCACCUUCAGCUAAAGCAGCUAUUGACU	0.0167
CUCAAGUCCUGUGCUACACAUCGUAUGUACCGAAUCGGGUUGGGGUUGGUUGGGAAAGUAUUAUGUUACGCCGUUCGGAUCUGCACUUCC	0.573
UAACUUUAGAGGAGGAUCUGAUGGAUAUGGCAGUGGACGUGGAUUUGGGGAUGGCUAUAAUGGGUAUGCAGGAGGACCUGGAGGUGGCAA	0.18
ACCAUGCAGGUGGAAAUCUUUGGGAAGUGGGGCAAGGGGGGGAUAGGGAGGGGGGUAACACUUUGGGAACAGGUGGUCCCAGGUCGUUUC	0.835
UGGCCCUGGUGGCAUGCGGGGAGGAAGAGGUGGCCUCAUGGAUCGUGGUGGUCCCGGUGGCAUGUUCAGAGGUGGCCGUGGUGGAGACAG	-0.143
CACAGACAACACGCACCCACACAGAGACAGAGGGAAGGGGUUGGGAUGGGGACAGGGUGCACAGCAGGGCGGGGUAGGACCCCAGCCCCU	1.92

Set 2
Target: RNA binding protein fox-1 homolog 2, RRM domain, GST-SBP tag (RBFOX2, Homo sapiens, UniProt O43251-10, residues 100-194)
Method: RNA Bind-n-Seq
Form: RNA
Sample: in vitro
Tested at: 365 nM
Notes: natural RNA segment, single round, ends assumed
Baseline: no-protein control
Direction: higher = stronger binding
Constant ends, left off below: GGGAGUUCUACAGUCCGACGAUC … UGGAAUUCUCGGGUGCCAA
Target sequence (chain): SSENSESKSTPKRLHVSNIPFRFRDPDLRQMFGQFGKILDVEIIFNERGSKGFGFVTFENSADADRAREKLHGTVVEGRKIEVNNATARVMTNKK
Sequence	RBNS enrichment (R)
GAAACUGAGUGAGUCGGAUUCCUCCAGGCCAGGUCUUCCCAGAACAGAGUCAGCCUCUAGUAGACCCUGCUCUUUUGCCCCUGGGGCGGGGAGGGUUGGCAGUGGUGGGG	0.463
GGUGGGCAUUUUAAAUAAUUAUUUAAAAGACAGGAAGUAAGCGGUACCGAGCAAUGAAACUGAAGGUACAGCACUGGGCGUCUGGGGACCCCACGCUCUCCCAACGCCCA	0.495
GUCAGGAGGGCUCAGCCCAGGAGCAGGUGGCCCUGGGGUGCAUGUCAGCCAGGGGCCAGUCAGCCCAGCAGUCUCCCCUGCUCCCUGACAUGAGUUCCUAAAGGGCACUG	2.25
AGUGUGGUUACAGGCUGCAUUUCAGACAAUGACCAGGUUUACUUUUCAGAUCACAAAGCAAACAGUCACCAAGGAUCUGUCUUCCAACUCUUUUUUUUUUCUGCUGAAAU	0.687
CCAAGGGGCUGCUAGUAUAUGUCAGACAUGAAAACUAUUUUAAAGCUGACUUUGUUGCCUUAUCUUGAAAAGAAUCUAGAUAGGUGCUUUUAACUGGGGUAUUAACUUUU	0.51
UAAGCUACAUCCCCAGUCCCUCUUUCUAGAAAACAGAUAAGUCCAUGUUCAGGGGAGAAGAGGUCACAGGUCAGGCCAGCUGCCCCAUCCUUUAGUUCGGGGUUAGCUCC	0.293
GACAGAAUCAUGGGACUUUGAGAAGAGGGAGGACAGAGGCCUCUGUCGCACUAACGCUCUCGUGGUUGCUCGACUGUUGUAUCUGUGAUACAUUAUCCGACUAAGGACUC	0.289
UCCUGGAAAUCGACACACUGAACAGUGCACUUUUAGUUCACUGCUAAACAAAGCACACUUUUCAGGACUUGCUGGGUCACCUUUUCCUGAGGAAUGAUAGCGAAGAGUGU	0.318
GAUCAGCCUCAGCCAGAGGACGAGGAGGCAGGUGACUGUCAUCAGCCUCGACUGCCACAGAGAAGCAUACUCUUGCAUCUGGGUUUGUUUACAGCGAUUCCGUGGACCGG	1.18
UUAGAGAGUCUGUCUUGAUUUGUGGUUUCAGAGACCCUAGAGAAAUUUGUACCAGUUUGUAUUAAAGUCAGUACUACCAGCACUUUGCCAAAACUACGGAUGUCAGAGGG	0.289
UGGGGCCUAUCAGUGUGCCCCCCAUCCUGGCCCAUCAGUGUACCCCCGCCCAGGCUGGCCAGCCCCACAGCCCACGUCCUGUCAGUGCCGCCGCCUCGCCCACCGCAUGC	10.6
GCUGCUAUCAGCUCUGUUAGGUUAUUGUGGGUGUUAGAGGCCGAGCACAGCGACCUCCAGGGCACCUCUGCGGAGUGACUAGCCACAGGCAGAGCUGCAUUGUGGUAUAU	0.428

Set 3
Target: Sal-like protein 4, full length isoform A (SALL4, Homo sapiens, UniProt Q9UJQ4, residues 1-1053)
Sequence of UniProt Q9UJQ4 (whole entry, looked up): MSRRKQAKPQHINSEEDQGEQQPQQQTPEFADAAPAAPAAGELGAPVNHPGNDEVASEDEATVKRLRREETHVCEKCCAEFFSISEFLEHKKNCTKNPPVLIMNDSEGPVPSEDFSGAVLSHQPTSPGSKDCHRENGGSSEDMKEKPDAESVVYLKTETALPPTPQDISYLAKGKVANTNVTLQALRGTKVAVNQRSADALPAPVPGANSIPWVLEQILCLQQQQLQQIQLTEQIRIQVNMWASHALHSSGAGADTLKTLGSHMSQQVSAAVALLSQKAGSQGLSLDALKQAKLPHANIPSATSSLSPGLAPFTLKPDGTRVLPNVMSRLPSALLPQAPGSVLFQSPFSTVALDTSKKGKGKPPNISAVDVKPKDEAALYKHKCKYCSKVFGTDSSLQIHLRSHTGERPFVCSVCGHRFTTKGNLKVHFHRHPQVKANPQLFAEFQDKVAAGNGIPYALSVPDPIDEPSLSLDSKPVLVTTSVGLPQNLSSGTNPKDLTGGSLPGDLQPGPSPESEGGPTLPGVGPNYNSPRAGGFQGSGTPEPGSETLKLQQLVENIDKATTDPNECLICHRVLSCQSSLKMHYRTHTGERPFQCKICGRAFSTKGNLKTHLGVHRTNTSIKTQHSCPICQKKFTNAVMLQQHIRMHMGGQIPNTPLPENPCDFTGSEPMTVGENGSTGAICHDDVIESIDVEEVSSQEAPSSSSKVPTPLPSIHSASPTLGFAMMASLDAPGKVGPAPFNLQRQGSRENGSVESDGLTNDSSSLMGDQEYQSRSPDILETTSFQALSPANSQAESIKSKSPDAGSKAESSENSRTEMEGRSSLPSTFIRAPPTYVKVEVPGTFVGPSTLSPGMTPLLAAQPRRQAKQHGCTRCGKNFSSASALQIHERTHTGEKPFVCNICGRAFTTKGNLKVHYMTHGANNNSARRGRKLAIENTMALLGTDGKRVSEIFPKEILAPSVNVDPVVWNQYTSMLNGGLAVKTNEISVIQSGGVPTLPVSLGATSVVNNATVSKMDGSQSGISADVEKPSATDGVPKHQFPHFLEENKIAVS
Method: universal PBM
Form: double-stranded DNA, one strand shown
Sample: in vitro
Tested at: 600 nM
Notes: 8-mer, flanks averaged, mean of replicates
Direction: higher = stronger binding
Sequence	E-score
CATGACGA	-0.124
AGTGCTTG	0.106
CGGGCGCC	-0.395
GACTTCAC	-0.259
ATGGAATG	-0.0457
CCGGACCG	-0.401
ACCCGTAG	-0.281
CGGGTTCC	-0.267
CAATGGAA	0.104
ACAGGATG	0.0278
AGCTGGAC	-0.113
ATCAGAAA	0.153
GGATCTGA	-0.0939
ATCCAGAA	0.139
AGCGACAT	0.0273
AGCGCGGG	-0.274
ACGTCTCG	-0.0532
ATGAATTC	0.203
AATAAGCA	0.23
GGTACATA	0.16
ACTCGGCC	-0.191
AGCCGGTG	-0.318
ACCAGCGC	-0.189

Set 4
Target: Histone acetyltransferase KAT6A, both winged helices, GST fusion (KAT6A, Homo sapiens, UniProt Q92794, residues 1-181)
Method: protein binding microarray
Form: double-stranded DNA, one strand shown
Sample: in vitro
Tested at: not given
Notes: 8-mer, flanks averaged, mean of 2 arrays, mostly near background
Baseline: not given
Direction: higher = stronger binding
Construct (chain): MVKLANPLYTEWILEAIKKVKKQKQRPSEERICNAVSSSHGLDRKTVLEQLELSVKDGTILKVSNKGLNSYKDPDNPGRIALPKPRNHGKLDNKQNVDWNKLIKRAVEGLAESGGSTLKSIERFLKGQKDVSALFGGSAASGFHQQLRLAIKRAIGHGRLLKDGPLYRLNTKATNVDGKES
Sequence	E-score
CAAATCTG	-0.0801
GAGCGAAA	0.103
CTTCCCGC	0.225
CCATACGC	0.00211
GATATTCC	0.0112
ACTTTTGG	-0.0102
TGCTAGCA	0.0337
ACCCACAT	-0.14
TCGCGTCA	0.179
GATCGCGA	0.244
GTTCACTA	0.0467
GACCCGGC	0.23
AACACGAC	-0.0999
AGAAGTCA	-0.0244
AGCATATC	-0.0828
TACCATAA	-0.08

Set 5
Target: Interferon regulatory factor 7, full length, phosphomimetic (IRF7, Homo sapiens, UniProt Q92985, residues 1-503, S101K/S471D/S472D/S475D/S476D/S477D/S483D/S484D/S487D)
Sequence of UniProt Q92985 (whole entry, unmodified, looked up): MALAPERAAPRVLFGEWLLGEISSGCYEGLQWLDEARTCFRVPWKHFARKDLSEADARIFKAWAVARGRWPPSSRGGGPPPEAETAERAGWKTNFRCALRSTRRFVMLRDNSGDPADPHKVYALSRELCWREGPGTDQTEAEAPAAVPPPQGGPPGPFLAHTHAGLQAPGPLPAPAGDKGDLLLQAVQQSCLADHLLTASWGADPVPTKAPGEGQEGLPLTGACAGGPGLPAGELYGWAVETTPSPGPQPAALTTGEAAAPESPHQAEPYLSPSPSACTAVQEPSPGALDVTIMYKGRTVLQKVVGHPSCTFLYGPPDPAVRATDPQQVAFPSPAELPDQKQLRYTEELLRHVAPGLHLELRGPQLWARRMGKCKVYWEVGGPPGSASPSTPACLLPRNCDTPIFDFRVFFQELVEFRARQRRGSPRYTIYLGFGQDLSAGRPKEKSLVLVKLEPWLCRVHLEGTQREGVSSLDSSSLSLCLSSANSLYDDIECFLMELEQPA
Method: protein-binding microarray
Form: double-stranded DNA, one strand shown
Sample: in vitro
Tested at: 250 nM
Notes: 60-bp whole probe
Together with: salmon DNA 0.4 mg/ml
Baseline: random background probes
Direction: higher = stronger binding
Constant ends, left off below: GCCTAGCAC … GTCTTGATTCGCTTGACGCTGCTG
Sequence	log fluorescence [z-score]
GTCGGTTTCCTTTTCCTGACGTGCTAG	8.18
GACGATTTCAGTTTCGCGACGTGCTAG	2.02
TTAGGACAGGGTATCGGTTAGTGCTAG	0.51
TCATTAATAAGGTTTCCAACTGTGCTA	1.1
TCAAATTTACTTTCTACACTGTGCTAG	0.559
CTCCTCTCTGGGTCAAAGGTGTGCTAG	0.196
GAGGGTCTCCTTATCCTGACGTGCTAG	-0.21
GACGGACCGGGTCTCGGGACGTGCTAG	0.454
TCAGTTTTTGCTTTCCTACTGTGCTAG	1.77
GACGGTTTCGTACTGCTGACGTGCTAG	5.98
TTAGGTTCCGGACTGGGTTAGTGCTAG	0.945
TTTCATTTATTTACTCTCTACGTGCTA	1.39
TTAGATCGCAGTTTCGATTAGTGCTAG	7.84
GACGATATCAGTTACGAGACGTGCTAG	-0.0455
TTAGTTTTCCTTTTCCTTTAGTGCTAG	5.61
GACGATAGCAGTTTCGAGACGTGCTAG	3.23
GTATTTGTCCCTATTTAAGAGTGCTAG	3.79
TTAGGTTCCCTTTTGCTTTAGTGCTAG	4.08
GACGGTCTCCGTTTCGGGACGTGCTAG	1.78
TTGGCTTATTCCAGATTTTTGTGCTAG	-0.622
GACGGGCTGGACACTGGGGACGTGCTA	-1.06

Excerpt of the above (set 4):
Sequence	E-score
GAGCGAAA	0.103
CTTCCCGC	0.225
CCATACGC	0.00211
GATATTCC	0.0112
ACTTTTGG	-0.0102
TGCTAGCA	0.0337
ACCCACAT	-0.14
TCGCGTCA	0.179
GATCGCGA	0.244
GTTCACTA	0.0467
GACCCGGC	0.23
AACACGAC	-0.0999
